Published values of several laboratories.
Each numbered part is a random draw from the data of one study; scales do not carry over between parts.

Block 1 — technique: RNA Bind-n-Seq; form: RNA; matrix: in vitro; concentration: not given; relative to: input RNA pool; reading: higher = stronger binding
Target: RING finger protein unkempt homolog, zinc fingers 1-6, GST-SBP tag (UNK, Homo sapiens, UniProt Q9C0B0, residues 30-357)
Notes: RNA with constant flanks, human-mouse chimeric sites, ends assumed
Residues (chain): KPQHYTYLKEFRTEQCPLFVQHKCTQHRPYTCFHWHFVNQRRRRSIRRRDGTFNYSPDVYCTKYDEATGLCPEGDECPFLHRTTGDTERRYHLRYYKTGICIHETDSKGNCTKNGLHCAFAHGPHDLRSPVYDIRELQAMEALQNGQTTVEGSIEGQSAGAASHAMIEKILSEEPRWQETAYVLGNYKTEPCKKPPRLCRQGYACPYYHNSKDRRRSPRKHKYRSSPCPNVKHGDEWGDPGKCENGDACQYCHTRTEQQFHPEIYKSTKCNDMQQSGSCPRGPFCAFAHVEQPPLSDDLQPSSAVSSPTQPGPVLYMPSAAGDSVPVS
| Sequence | bound/input enrichment [ratio] |
| --- | --- |
| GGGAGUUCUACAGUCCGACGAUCAAAGAACCUCUCUCUGAUGAAGAUGAGGACAGUGAUGAUGAUGUUGAACCCAUUUCUGAAUUUAGAUUUGUGCCCAGUGAUAAGUCAGCAUUGGAGGCGAUGUUCACAGCAAUGUGUGAGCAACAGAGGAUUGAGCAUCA | 2.22 |
| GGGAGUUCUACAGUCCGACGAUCUGGCGCCUGCGCUCCCCACUCGUGUUUUUAAGUGUAUAAGAUGUAUAUACAUGUAUUUACAAUUGAGCUUUUGUUACAUAAUGCUGAAAUGCUACUGCAAUAUUAUGAAAAUGUUUCAAUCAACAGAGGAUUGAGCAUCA | 0.11 |
| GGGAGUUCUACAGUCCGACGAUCUCCCAAAUCCAGCAGCUAGAAGGAGCCUUGAGACAAACACUCCACACACAGGGAAGGCGAUAACAUUGUAAAUUGGUUUACAUUUUUCUCCUUGAAUGAUUUUUCUAGAGGUCAUAGUGCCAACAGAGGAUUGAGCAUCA | 0.446 |
| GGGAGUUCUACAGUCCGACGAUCGUGCCCUCCUUCUCGCUGCGGAGCCCGAGCUGGGAACCAUUCCGGGACUGGUACCCUGCACACAGCCGCCUCUUCGAUCAAGCUUUCGGGGUGCCCCGGUUGCCCGAGGAGUGGUCGCAGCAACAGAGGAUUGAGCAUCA | 0.0624 |
| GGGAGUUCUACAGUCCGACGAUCGCUCCUCCCCGCUCUGCAGCCUGGGGACACUGGGCUGGGACCAGAAUCCAGCUUUCUUUUAAAACUCUAUAUUUUUUUGUAUCCCGUGACAUUUCAUUUUUUUUAAAUAGUGUAUUUUUUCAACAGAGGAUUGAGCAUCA | 16.3 |
| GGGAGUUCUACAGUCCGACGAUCAAAGUGAUGACUAUGUUUGUCCAACGACAGGUAUUUUCGGAGAGCAAGGAUGAGAUUGCGUUAGUCCUGUUUGGUACAGAUGGCACUGAUAAUGCCCUUGCUGGCAAGGACCAGUAUCAGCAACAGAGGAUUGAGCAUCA | 0.132 |
| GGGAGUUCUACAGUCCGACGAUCACCUCCCCCUCCCGCCUGCUUUUUGAACCGCUUUUUGGAAAGUUUUUGGCGUUUCUUUUCCUUCCCCAGUUAGAAUUAUUACAGUUUCCCCCGCAAGGGUCUAUCGAAGGGCUUGACGGACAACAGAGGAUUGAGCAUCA | 36.9 |
| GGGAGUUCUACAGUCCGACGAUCAAAGAACCUCUCUCUGAAGAAGAGGAAGAAGACAAUGAUGAUGUUGAACCCAUUUCUGAAUUUCGAUUUGUGCCCAGUGAUAAGUCAGCGUUGGAGGCGAUGUUCACAGCAAUGUGUGAGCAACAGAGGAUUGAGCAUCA | 0.243 |

Block 2 — technique: protein-binding microarray; form: double-stranded DNA, one strand shown; matrix: in vitro; concentration: 250 nM; notes: 60-bp whole probe; with: salmon DNA 0.4 mg/ml; relative to: random background probes; reading: higher = stronger binding; shared flanks, not repeated: GCCTAGCAC … GTCTTGATTCGCTTGACGCTGCTG
Target: Interferon regulatory factor 7, full length, phosphomimetic (IRF7, Homo sapiens, UniProt Q92985, residues 1-503, S101K/S471D/S472D/S475D/S476D/S477D/S483D/S484D/S487D)
Residues (chain): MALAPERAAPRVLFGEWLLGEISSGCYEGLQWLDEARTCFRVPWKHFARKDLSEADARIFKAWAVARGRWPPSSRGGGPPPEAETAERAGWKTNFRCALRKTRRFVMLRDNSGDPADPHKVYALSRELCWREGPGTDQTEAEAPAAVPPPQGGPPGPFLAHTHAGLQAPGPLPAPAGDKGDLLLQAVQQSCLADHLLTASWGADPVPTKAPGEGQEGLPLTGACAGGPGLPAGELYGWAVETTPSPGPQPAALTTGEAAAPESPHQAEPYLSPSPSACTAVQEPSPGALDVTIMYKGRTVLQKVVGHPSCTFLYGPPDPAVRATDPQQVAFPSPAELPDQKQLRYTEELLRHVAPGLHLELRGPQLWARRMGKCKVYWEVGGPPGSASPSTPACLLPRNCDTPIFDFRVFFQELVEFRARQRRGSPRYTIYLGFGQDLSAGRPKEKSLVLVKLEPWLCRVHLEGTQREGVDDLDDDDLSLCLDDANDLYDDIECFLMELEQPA
| Sequence | log fluorescence |
| --- | --- |
| TTAGGACTGTACTTTCGGTTAGTGCTA | 1.67 z-score |
| GACGGTTTCGACTATCGGCACGTGCTA | 5.36 z-score |
| CTAGGTATCGGGTTTCGGTTAGTGCTA | 7.75 z-score |
| GATGGCCTCTTGCTCAGCCCGTGCTAG | -0.918 z-score |
| GACGGTTTCGGGTATCGCGACGTGCTA | 7.12 z-score |
| TTATATCTGTGTTATTAAATTGTGCTA | 0.923 z-score |
| GACGGTTTCCTATTGCTGACGTGCTAG | 4.31 z-score |
| GACGATCACAGACTGGAGACGTGCTAG | -0.381 z-score |
| GACGGTTTCGGCTTTCGGGACGTGCTA | 7.68 z-score |
| TTAGGTATCCTACTGCTTTGGTGCTAG | 0.07 z-score |
| TGCGGTTCAGATATAGGATAGTGCTAG | -0.373 z-score |
| GACGATCTCAGTATCGAGGCGTGCTAG | -0.123 z-score |
| TATGGCTTCAAGTAACTACAGTGCTAG | -0.445 z-score |
| TCATAATTCTCTTTTCAACTGTGCTAG | 1.06 z-score |
| GACGGACTGCTTATCGTGACGTGCTAG | -0.25 z-score |

Block 3 — technique: Sort-seq; refers to: YFP reporter; matrix: E. coli; notes: PhoQ-PhoP variant library; with: 10 µM Mg2+; relative to: high Mg2+ state; reading: higher = stronger signaling
Molecule: PhoQ, residues 284 288 289 292 302 303 MLMVEA
| target | fold induction |
| --- | --- |
| PhoP, residues 12 14 15 18 19 TPWTL (Escherichia coli, UniProt P23836) | 16.5 |
| PhoP, residues 12 14 15 18 19 NFFVT (Escherichia coli, UniProt P23836) | 11.8 |
| PhoP, residues 12 14 15 18 19 LHHYF (Escherichia coli, UniProt P23836) | 1.71 |

Block 4 — technique: aptamer microarray, sandwich; form: DNA with 2'F-ANA; matrix: in vitro; concentration: 200 nM; with: Cy3 exosite-II aptamer, 400 nM; reading: higher = stronger binding; sequence: GGTTGGTGTGGTTGG
Target: Prothrombin, mature alpha-thrombin (F2, Homo sapiens, UniProt P00734)
Notes: whole 15-mer aptamer, many near background
| Modification | mean fluorescence intensity [a.u.] |
| --- | --- |
| 2'F-ANA at 3 5 7 8 10 12 14 | 53.3 |
| 2'F-ANA at 2 4 6 8 9 12 14 | 109 |
| 2'F-ANA at 2 3 6 8 9 11 12 14 | 390 |
| 2'F-ANA at 2 7 9 10 11 12 14 15 | 87.3 |
| 2'F-ANA at 1 2 6 9 10 11 14 | 45.8 |
| 2'F-ANA at 1 2 3 5 7 9 10 11 13 | 45.9 |
| 2'F-ANA at 1 5 7 8 11 15 | 87.7 |
| 2'F-ANA at 3 4 5 8 9 11 13 15 | 66.4 |
| 2'F-ANA at 1 8 11 14 15 | 63.2 |
| 2'F-ANA at 3 4 5 8 10 15 | 65.6 |
| 2'F-ANA at 1 2 4 5 7 10 13 14 | 47.8 |
| 2'F-ANA at 2 4 5 6 8 9 11 12 13 14 | 47.2 |
| 2'F-ANA at 2 5 6 7 8 9 10 13 14 | 102 |
| 2'F-ANA at 1 2 3 4 6 9 11 13 | 92.4 |
| 2'F-ANA at 2 4 5 6 7 8 12 13 15 | 272 |
| 2'F-ANA at 1 2 3 4 5 6 7 9 10 11 12 15 | 49.6 |
| 2'F-ANA at 6 9 10 11 13 14 15 | 92.5 |

Some of these lines once more (block 4):
| Modification | mean fluorescence intensity [a.u.] |
| --- | --- |
| 2'F-ANA at 2 4 6 8 9 12 14 | 109 |
| 2'F-ANA at 2 3 6 8 9 11 12 14 | 390 |
| 2'F-ANA at 2 7 9 10 11 12 14 15 | 87.3 |
